Values quoted from earlier work as cited in several papers.
“And” joins repeats or separate records; there may be more than shown. Numbers after ± are the reported error.
Sequence of UniProt P06536 (whole entry, looked up): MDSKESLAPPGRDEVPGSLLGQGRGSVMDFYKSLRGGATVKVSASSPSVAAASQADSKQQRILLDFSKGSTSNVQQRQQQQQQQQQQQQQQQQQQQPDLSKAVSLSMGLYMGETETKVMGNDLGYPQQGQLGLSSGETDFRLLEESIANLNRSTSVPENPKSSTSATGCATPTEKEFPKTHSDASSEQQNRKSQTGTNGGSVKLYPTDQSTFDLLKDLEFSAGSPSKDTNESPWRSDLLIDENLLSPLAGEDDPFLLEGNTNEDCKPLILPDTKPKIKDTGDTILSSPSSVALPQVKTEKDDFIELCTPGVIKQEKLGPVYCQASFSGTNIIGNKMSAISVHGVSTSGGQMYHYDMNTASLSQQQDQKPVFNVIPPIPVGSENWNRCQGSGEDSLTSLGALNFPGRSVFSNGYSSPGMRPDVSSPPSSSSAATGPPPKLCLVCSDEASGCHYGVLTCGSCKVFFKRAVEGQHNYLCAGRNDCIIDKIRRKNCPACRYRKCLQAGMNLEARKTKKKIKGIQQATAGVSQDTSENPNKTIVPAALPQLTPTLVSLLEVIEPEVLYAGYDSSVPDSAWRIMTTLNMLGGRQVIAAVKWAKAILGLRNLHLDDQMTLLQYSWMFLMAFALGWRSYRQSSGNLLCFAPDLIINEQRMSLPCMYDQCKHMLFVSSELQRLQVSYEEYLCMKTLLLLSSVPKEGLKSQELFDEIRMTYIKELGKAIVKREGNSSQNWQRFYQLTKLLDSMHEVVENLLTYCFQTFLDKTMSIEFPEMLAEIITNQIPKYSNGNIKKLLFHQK
Sequence of UniProt P18089 (whole entry, looked up): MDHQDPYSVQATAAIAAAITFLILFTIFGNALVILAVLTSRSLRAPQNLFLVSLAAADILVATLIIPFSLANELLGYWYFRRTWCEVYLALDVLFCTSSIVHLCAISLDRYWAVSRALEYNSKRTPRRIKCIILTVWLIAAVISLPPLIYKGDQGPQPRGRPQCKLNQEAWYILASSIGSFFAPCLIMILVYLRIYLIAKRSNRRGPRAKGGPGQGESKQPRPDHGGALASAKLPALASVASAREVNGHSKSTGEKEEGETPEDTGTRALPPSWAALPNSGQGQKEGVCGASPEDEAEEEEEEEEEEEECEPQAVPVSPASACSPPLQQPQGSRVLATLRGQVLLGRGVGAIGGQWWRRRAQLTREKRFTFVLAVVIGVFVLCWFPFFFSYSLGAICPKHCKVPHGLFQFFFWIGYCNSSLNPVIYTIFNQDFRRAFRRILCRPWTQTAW
Sequence of UniProt Q9Y2H9 (whole entry, looked up): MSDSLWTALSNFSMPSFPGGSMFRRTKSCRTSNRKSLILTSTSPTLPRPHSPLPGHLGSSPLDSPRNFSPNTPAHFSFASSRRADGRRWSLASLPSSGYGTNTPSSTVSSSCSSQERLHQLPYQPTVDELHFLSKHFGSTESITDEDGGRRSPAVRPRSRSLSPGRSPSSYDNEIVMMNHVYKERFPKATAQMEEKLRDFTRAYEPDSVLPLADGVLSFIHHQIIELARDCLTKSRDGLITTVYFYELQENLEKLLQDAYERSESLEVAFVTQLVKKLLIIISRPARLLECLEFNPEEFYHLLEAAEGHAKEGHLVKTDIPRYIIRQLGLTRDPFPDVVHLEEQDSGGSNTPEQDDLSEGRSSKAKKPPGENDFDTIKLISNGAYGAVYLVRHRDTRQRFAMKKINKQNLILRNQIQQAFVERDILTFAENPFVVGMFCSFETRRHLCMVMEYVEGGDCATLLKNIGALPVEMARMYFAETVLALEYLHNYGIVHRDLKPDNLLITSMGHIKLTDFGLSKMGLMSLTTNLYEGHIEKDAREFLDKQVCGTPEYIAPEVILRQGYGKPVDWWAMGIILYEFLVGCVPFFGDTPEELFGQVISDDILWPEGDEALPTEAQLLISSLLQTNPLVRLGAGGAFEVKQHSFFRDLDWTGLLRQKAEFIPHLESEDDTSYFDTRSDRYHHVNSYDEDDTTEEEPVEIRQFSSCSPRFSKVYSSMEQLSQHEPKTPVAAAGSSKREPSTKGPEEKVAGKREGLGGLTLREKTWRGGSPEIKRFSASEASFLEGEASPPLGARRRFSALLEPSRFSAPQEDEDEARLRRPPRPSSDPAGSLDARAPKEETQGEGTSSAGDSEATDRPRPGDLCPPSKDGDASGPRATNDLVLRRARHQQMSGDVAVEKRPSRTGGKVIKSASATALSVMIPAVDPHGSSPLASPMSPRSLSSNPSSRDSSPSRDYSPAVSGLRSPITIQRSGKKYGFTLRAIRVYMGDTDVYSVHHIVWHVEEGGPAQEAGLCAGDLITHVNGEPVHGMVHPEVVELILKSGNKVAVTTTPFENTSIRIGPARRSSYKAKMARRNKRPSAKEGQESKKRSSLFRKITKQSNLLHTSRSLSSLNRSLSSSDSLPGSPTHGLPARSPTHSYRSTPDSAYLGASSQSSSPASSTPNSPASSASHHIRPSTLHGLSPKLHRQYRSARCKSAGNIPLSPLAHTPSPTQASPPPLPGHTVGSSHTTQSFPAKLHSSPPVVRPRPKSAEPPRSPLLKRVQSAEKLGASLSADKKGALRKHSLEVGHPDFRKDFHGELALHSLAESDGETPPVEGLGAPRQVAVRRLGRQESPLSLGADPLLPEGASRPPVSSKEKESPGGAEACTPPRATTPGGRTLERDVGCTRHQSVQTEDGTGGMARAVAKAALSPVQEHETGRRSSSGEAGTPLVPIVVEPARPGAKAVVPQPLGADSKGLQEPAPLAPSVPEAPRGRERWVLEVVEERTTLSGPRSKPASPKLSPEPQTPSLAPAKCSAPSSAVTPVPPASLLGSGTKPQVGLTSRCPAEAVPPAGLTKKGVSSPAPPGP

`C[C@@H]1O[C@@H](OC[C@H]2O[C@@H](Oc3c(-c4ccc(O)c(O)c4)oc4cc(O)cc(O)c4c3=O)[C@H](O)[C@@H](O)[C@@H]2O)[C@H](O)[C@H](O)[C@H]1O` has a CC50 of 329 µg/mL (Vero).
For `C[C@H]1COCCN1c1nc(-c2cnc(N)cc2C(F)F)nc(N2CCOCC2)n1`, the GI50 was 0.728 µM (SNU-C2B).
`CC(C)C[C@@H](C(=O)N[C@H](C(=O)OC1CCCC1)c1ccccc1)[C@H](O)C(=O)NO` gave a CC50 of 12.7 ± 3.2 µM (Vero; MTT).
`C=CCC(CCC)C(=O)O` (stereo not drawn) has an IC10 of 222 µM (mouse D3 embryonic stem cells; cell viability; unbound medium concentration).
`COc1ccc(C[C@H](NC(=O)[C@H](C)NC(=O)CN2CCOCC2)C(=O)N[C@@H](Cc2ccccc2)C(=O)C2(C)CO2)cc1` (stereo in doubt) gave a CC50 of 0.35 ± 0.143 µM (HeLa; cytotoxicity).
`O=C(O[C@@H]1COC(=O)c2cc(O)c(O)c(O)c2-c2c(cc(O)c(O)c2O)C(=O)O[C@H]1[C@@H]1OC(=O)c2cc(O)c(O)c(O)c2-c2c(O)c(O)c(O)c3c2C(=O)O[C@H]1[C@@H]3O)c1cc(O)c(O)c(O)c1` gave an IC50 of over 37.5 µg/mL (normal lymphocytes; cytotoxicity).
`CC(=O)O[C@H]1C(=O)[C@@]2(C)[C@H]([C@H](OC(=O)c3ccccc3)[C@]3(O)C[C@H](OC(=O)[C@H](O)[C@@H](NC(=O)c4ccccc4)c4ccccc4)C(C)=C1C3(C)C)[C@]1(OC(C)=O)CO[C@@H]1C[C@@H]2O` has an IC50 of 0.0009 µM (MCF7; cytotoxicity).
`O=C(c1ccc(Cl)cc1)N(Cc1ccccc1)C1CCCCC1`: “lowest toxic concentration” over 1 nM (HUVEC; cell viability).
For `O=S(=O)(Nc1ccc(-c2nc3cc(NS(=O)(=O)c4cccc5ccccc45)ccc3o2)cc1)c1cccc2ccccc12`, the CC50 was over 100 µM (HEK293).
`Nc1cc(C(F)(F)F)c(-c2nc(N3CCOCC3)nc(N3CCOCC3)n2)cn1` has a remaining activity of 100% (MAST1 (Homo sapiens, UniProt Q9Y2H9); enzyme activity; 10 µM; baseline: untreated).
`CCCCCC(CCC)C(=O)O` (stereo not drawn) gave an IC10 of 123 µM (mouse D3 embryonic stem cells; cell viability; unbound medium concentration).
With `CCC(=O)O[C@]1(C(=O)SCF)[C@H](C)C[C@H]2[C@@H]3C[C@H](F)C4=CC(=O)C=C[C@]4(C)[C@@]3(F)[C@@H](O)C[C@@]21C` the receptor occupancy was 38.3% and 20.7% (Nr3c1 (Rattus norvegicus, UniProt P06536); rat, spleen; intravenous, 90 nmol/kg, 4.008 (unit not given)).
The EC10 of `C=CCCC(=O)O` is reported as 1710 µM (human neural embryonic cells; cell viability; unbound medium concentration).
`CNC(C)C1CCC(N)C(OC2C(N)CC(N)C(OC3OCC(C)(O)C(NC)C3O)C2O)O1` (stereo not drawn) has an MIC of over 8 µg/mL (Pseudomonas aeruginosa; clinical isolate RKI-No_67/14).
The CC50 of `Cc1cc(/C=C/C#N)cc(C)c1Nc1ccnc(Nc2ccc(C#N)cc2)n1` is reported as about 5 µM (MT-4).
`COC(=O)N[C@@H](C)CNc1nccc(-c2cn(C(C)C)nc2-c2cc(Cl)cc(NS(C)(=O)=O)c2F)n1`: CYP2C9 induction “increased” (human primary hepatocytes; inducer; concentration not given).
`COc1c(Br)cccc1C(=O)Nc1ccc(Sc2nc3ccccc3s2)cc1` gave a CC50 of over 100 µM (THLE3).
`CC(C)C[C@@H](NC(=O)[C@H](C)NC(=O)CNC(=O)[C@@H](NC=O)C(C)C)C(=O)N[C@@H](C)C(=O)N[C@@H](C(=O)N[C@H](C(=O)N[C@@H](C(=O)N[C@@H](Cc1c[nH]c2ccccc12)C(=O)N[C@H](CC(C)C)C(=O)N[C@@H](Cc1c[nH]c2ccccc12)C(=O)N[C@H](CC(C)C)C(=O)N[C@@H](Cc1c[nH]c2ccccc12)C(=O)N[C@@H](C(=O)N[C@@H](Cc1c[nH]c2ccccc12)C(=O)NCCO)C(C)C)[C@H](C)O)C(C)C)C(C)C` gave an IC50 of 0.387 ± 0.0909 µM (P388 mouse leukaemia; cytotoxicity).
With `CNC(=O)[C@@]12C[C@@H]1[C@@H](n1cnc3c(NCc4cccc(Cl)c4)nc(C#Cc4ccc(F)c(F)c4)nc31)[C@H](O)[C@@H]2O` the Ki was 1 to 10 µM (ADRA2B (Homo sapiens, UniProt P18089); radioligand binding (PDSP)).
`CCCC(CCC)C(=O)O` has an IC10 of 285 µM (mouse D3 embryonic stem cells; cell viability; unbound medium concentration).
`CC1(C)S[C@@H]2[C@H](NC(=O)[C@H](N)c3ccccc3)C(=O)N2[C@H]1C(=O)O` has an MIC of over 16 µg/mL (Pseudomonas aeruginosa; clinical isolate RKI-No_67/14).

Repeated from above:
`CC(=O)O[C@H]1C(=O)[C@@]2(C)[C@H]([C@H](OC(=O)c3ccccc3)[C@]3(O)C[C@H](OC(=O)[C@H](O)[C@@H](NC(=O)c4ccccc4)c4ccccc4)C(C)=C1C3(C)C)[C@]1(OC(C)=O)CO[C@@H]1C[C@@H]2O` has an IC50 of 0.0009 µM (MCF7; cytotoxicity).
